Measurements gathered from unrelated publications.
A part holds a random share of what one study measured. Substitutions count along the parent as printed.

Set 1 — technique: DHFR PCA, dose-response; sample: yeast; notes: Hill fit, mean, not affinity; added: (+)-ABA, dose series; direction: lower = more sensitive; endpoint: ABA EC50
Target: ABI1, truncated, D143A, DHFR fusion (Arabidopsis thaliana, UniProt P49597)
Parent: PYL1, truncated, DHFR fusion (Arabidopsis thaliana, UniProt Q8VZS8); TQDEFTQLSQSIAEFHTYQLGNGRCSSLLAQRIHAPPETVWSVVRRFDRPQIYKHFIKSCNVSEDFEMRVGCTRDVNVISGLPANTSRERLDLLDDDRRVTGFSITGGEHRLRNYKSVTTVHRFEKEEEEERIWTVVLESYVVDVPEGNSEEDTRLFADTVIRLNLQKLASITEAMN
D153S: 99.7 µM
E127T: 2.67 µM
E152F: 5.05 µM
E38P: 49.3 µM
G148Q: 14.3 µM
D75I: 0.605 µM
E38N: 7.32 µM
L91W: 125 µM

Set 2 — technique: RNAcompete; form: RNA; sample: in vitro; concentration: 20 nM; notes: 7-mer, probes averaged, single round; relative to: mean of 7-mers; direction: higher = stronger binding; endpoint: 7-mer Z-score
Target: PABPC1L2, full length, GST fusion (mouse, UniProt A0ABA7IW68)
Residues (chain): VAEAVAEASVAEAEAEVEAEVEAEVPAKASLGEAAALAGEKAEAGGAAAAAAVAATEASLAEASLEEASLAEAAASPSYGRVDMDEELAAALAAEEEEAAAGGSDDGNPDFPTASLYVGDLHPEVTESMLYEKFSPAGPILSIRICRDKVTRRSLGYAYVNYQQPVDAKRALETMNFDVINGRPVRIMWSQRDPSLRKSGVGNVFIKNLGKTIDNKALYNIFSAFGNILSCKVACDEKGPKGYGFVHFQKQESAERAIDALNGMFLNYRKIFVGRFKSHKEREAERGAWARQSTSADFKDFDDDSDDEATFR
CGAACAA: 0.582
AAGCUAU: -0.0573
CCUGGGA: -0.122
AGAGAGU: -0.249
AACGGUU: 0.00979
CUUAGAG: -0.144
GACUAUU: -0.191
CGGAUGA: 0.0478

Set 3 — target: CRIPT, C-terminal peptide; technique: DHFR complementation, deep sequencing; sample: yeast; relative to: wild type; direction: higher = weaker binding; endpoint: binding free energy change
Notes: single substitutions, model-inferred values
Parent: ERBIN, PDZ domain 1 (human); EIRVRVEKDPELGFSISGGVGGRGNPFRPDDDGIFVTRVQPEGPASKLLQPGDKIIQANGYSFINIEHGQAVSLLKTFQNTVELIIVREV; partner TKNYKQTSV
P51L: 0.333 kcal/mol
V20K: -0.152 kcal/mol
I64A: 0.00327 kcal/mol
Q57M: 0.0109 kcal/mol
F63K: 1.6 kcal/mol
K8W: 1.61 kcal/mol
N80M: 0.111 kcal/mol
T77F: 0.233 kcal/mol

Further values, each from its own experiment
Parent: PafA, mature enzyme, eGFP fusion (Elizabethkingia meningoseptica, UniProt Q9KJX5); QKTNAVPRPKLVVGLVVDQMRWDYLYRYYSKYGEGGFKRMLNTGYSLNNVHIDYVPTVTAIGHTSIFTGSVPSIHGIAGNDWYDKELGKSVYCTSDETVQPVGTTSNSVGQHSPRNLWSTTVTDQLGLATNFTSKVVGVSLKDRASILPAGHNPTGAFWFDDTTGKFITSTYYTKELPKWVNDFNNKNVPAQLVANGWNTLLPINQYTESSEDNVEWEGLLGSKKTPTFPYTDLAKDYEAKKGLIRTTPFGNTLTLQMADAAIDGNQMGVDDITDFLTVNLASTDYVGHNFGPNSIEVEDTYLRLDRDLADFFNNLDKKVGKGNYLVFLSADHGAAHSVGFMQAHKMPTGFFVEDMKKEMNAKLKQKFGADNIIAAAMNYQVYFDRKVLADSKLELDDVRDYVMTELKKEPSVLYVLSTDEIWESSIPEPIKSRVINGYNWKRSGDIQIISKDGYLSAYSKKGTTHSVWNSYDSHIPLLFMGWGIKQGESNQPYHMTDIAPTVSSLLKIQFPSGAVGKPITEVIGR
F132V — oxyanion analog dissociation constant (tungstate, free oxyanion; microfluidic competitive inhibition; in vitro, cell-free expressed; not given, derived from inhibition constants, unchanged parent 2230 nM; lower = stronger binding): 1.35 µM

Repeated from above (set 3):
F63K: 1.6 kcal/mol
K8W: 1.61 kcal/mol
N80M: 0.111 kcal/mol
